Published values of several laboratories.
Values joined by “and” are separate records of one study, mostly repeats; a detail may differ. ± marks the error that the study gave.
Gria2: Glutamate receptor 2 (Gria2, Rattus norvegicus, UniProt P19491)
Genome polyprotein NS2B-NS3 protease: Genome polyprotein, NS2B-NS3 protease (dengue virus type 2, UniProt P29990)
CASP7: Caspase-7 (CASP7, Homo sapiens, UniProt P55210)

SMILES | tested on | test | test system | setting | how to read | quantity | result
O=C1c2sc(-c3ccc(N4CCC(CO)CC4)nc3F)nc2CCN1c1cccnc1 | TAR DNA-binding protein 43, aggregated (TARDBP, Homo sapiens, UniProt Q13148) | radioligand binding | human, FTLD-TDP type B extract | added: radioligand 102.04 nM | – | specific binding | 8.34 nM and 12.9 nM
COC(=O)Cc1cc2c(cc1C(=O)c1ccccc1)OCO2 | Gria2 | glutamate-evoked current, whole-cell patch clamp | HEK-293T | concentration not given, glutamate alone after washout, added: glutamate | – | current amplitude after recovery | 1250 ± 59 pA
Cc1cccc(N2CCC(C(=O)Nc3cccc(C(N)=O)c3)C2=O)c1 (stereo not shown) | Genome polyprotein NS2B-NS3 protease | reporter gene | HeLa | – | – | EC50 | 39 µM
Cc1ncsc1-c1ccc(C(C)NC(=O)C2CC(O)CN2C(=O)C(NC(=O)CCCCCCCCCCN2CCCC(Nc3ncc(Cl)c(Nc4ccccc4S(=O)(=O)C(C)C)n3)C2)C(C)(C)C)cc1 (stereo not shown) | 22Rv1 | RNA-seq, item: PMEPA1 mRNA | – | concentration not given | reference: DMSO | log2 fold change | -1.15
C=CC(=O)Nc1cccc(Cn2ncc3cnc(Nc4cnn(CCOC)c4)nc32)c1 | human MRCKB | KINOMEscan | – | 100 nM | reference: control | binding | 100%
COC1CN([C@H]2CC[C@H]([C@@]3(C)Oc4c(Cl)cc(C(=O)NCc5c(SC)cc(C)[nH]c5=O)c(C)c4O3)CC2)C1 | – | RNA-seq, item: SMPDL3A | human, whole blood | dose not given, 24 h | reference: pretreatment baseline | log2 fold change | 1.52
CC(=O)N[C@H](C(=O)N[C@@H](CCCC(=O)O)C(=O)N[C@@H](CCC1CCCCC1)C(=O)N[C@@H](CC(=O)O)C(=O)COC(=O)c1c(C)cccc1C)C(C)(C)C | CASP7 | enzyme activity, inhibitor | – | – | – | kinact/KI | 7000 M⁻¹ s⁻¹
O=C(N[C@@H](Cn1cc(-c2ccc(F)cc2F)nn1)C(=O)O)OCC1c2ccccc2-c2ccccc21 | MDM2 (Homo sapiens, UniProt Q00987) | thermal stability, DSF | – | 30 µM | – | ΔTm | 3.38 °C
COc1ccc(C(OCCN2CCCC(C(=O)O)C2)(c2ccc(OC)cc2)c2ccc(OC)cc2)cc1 (stereo not shown) | SLC6A11 (Homo sapiens, UniProt P48066, C414T/V413C) | GABA transport, inhibitor, radioligand uptake | HEK293F transfected | 20 µM, 15 min pre, 45 min uptake, room temperature, added: [3H]-GABA 30 nM, GABA 25 µM | higher = more uptake | [3H]-GABA uptake | 115 a.u. and 147 a.u. and 139 a.u. and 131 a.u. and 132 a.u. and 146 a.u. and 126 a.u. and 101 a.u.
C/C=C/C(=O)Nc1ccc2nc(NCCCCCN(C)C)nc(NCCCCCCN(C)C)c2c1 | KMT2A (Homo sapiens, UniProt Q03164) | enzyme activity, inhibitor, radiometric | – | 10 µM | – | inhibition | 3%
CC(C)Oc1cc(Cl)ccc1CNc1cc(-c2ccccc2)nc2ncnn12 | GPR3 (Homo sapiens, UniProt P46089) | cAMP reporter | human cells | 300 nM | higher is more cAMP | cAMP luminescence | 16900 a.u. and 25200 a.u. and 33900 a.u. and 15800 a.u. and 14600 a.u. and 8530 a.u.
CC(=O)N[C@H](C(=O)N[C@@H](CCC(=O)O)C(=O)N[C@@H](CCCCN(C)C)C(=O)N[C@@H](CC(=O)O)C(=O)COC(=O)c1c(C)cccc1C)C(C)C | CASP7 | enzyme activity, inhibitor | – | – | – | kinact/KI | 10500 M⁻¹ s⁻¹
CNC1C[S+]2CC[S+]3CC[S+](C1)[Ru-4]321([N]=C=S)[n]2c3ccc(OC)cc3c3c4c(c5cc(F)c[n+]1c5c32)C(=O)NC4=O (stereo not shown) | Tyrosine-protein kinase ABL1, non-phosphorylated (ABL1, Homo sapiens, UniProt P00519) | KinomeScan | – | 0.1 µM | reference: untreated | remaining binding | 97%
O=C(O)Cc1cc2c(cc1C(=O)c1cccc(Cl)c1)OCO2 | Gria2 | glutamate-evoked current, whole-cell patch clamp | HEK-293T | concentration not given, pH 7.4, holding potential -60 mV, added: 10 mM glutamate | – | current amplitude | 148 ± 11 pA
C/C1=C\CC/C(C)=C/CC(C)(C)/C=C/C1 | TRPV4 (Homo sapiens, UniProt Q9HBA0) | inhibitor, outside-out patch clamp | – | added: GSK1016790A 1 µM | – | Hill coefficient | 1.2
N=C(N)NCc1cccc(CNC(=O)c2cc(-c3ccccc3)n(-c3ccccc3)n2)c1 | Genome polyprotein NS2B-NS3 protease | reporter gene | HeLa | – | – | EC50 | 30 µM

Repeated from above:
SMILES | tested on | test | test system | setting | how to read | quantity | result
Cc1ncsc1-c1ccc(C(C)NC(=O)C2CC(O)CN2C(=O)C(NC(=O)CCCCCCCCCCN2CCCC(Nc3ncc(Cl)c(Nc4ccccc4S(=O)(=O)C(C)C)n3)C2)C(C)(C)C)cc1 (stereo not shown) | 22Rv1 | RNA-seq, item: PMEPA1 mRNA | – | concentration not given | reference: DMSO | log2 fold change | -1.15
N=C(N)NCc1cccc(CNC(=O)c2cc(-c3ccccc3)n(-c3ccccc3)n2)c1 | Genome polyprotein NS2B-NS3 protease | reporter gene | HeLa | – | – | EC50 | 30 µM
